Results from different studies.
Parts stem from different laboratories: compare values within a part only.
Chain of UniProt Q6P2M8 (whole entry, looked up): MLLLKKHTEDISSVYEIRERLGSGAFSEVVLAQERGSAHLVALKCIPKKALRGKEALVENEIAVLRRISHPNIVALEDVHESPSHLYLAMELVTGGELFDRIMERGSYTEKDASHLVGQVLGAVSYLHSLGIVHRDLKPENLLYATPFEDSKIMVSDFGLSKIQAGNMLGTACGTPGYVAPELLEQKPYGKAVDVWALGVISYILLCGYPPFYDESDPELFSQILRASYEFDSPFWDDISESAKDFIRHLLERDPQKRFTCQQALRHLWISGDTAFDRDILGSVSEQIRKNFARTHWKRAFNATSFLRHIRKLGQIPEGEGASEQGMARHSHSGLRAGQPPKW
Chain of UniProt P31751 (whole entry, looked up): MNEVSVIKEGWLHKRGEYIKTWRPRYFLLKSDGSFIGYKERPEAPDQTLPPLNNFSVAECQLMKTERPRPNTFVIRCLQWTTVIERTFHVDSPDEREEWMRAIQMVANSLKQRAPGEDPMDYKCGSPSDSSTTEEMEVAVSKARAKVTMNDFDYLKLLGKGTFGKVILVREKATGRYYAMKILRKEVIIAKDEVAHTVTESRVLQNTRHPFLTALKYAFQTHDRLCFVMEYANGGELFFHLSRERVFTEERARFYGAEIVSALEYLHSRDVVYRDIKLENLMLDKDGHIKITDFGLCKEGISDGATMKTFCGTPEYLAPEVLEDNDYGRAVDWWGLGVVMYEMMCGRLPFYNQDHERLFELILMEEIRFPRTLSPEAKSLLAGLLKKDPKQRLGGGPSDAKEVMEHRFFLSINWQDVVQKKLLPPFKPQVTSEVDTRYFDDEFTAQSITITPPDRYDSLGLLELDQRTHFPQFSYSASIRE
Chain of UniProt P50750 (whole entry, looked up): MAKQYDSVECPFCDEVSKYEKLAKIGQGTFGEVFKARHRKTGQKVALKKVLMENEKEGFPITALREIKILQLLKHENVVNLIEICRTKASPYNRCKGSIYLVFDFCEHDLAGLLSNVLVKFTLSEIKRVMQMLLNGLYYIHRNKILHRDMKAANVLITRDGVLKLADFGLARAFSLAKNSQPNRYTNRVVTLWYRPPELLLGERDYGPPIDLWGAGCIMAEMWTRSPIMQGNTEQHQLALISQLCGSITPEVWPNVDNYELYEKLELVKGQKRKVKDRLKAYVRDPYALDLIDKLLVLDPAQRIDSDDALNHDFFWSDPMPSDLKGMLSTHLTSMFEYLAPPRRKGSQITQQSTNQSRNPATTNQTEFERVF
Chain of UniProt Q9UQB9 (whole entry, looked up): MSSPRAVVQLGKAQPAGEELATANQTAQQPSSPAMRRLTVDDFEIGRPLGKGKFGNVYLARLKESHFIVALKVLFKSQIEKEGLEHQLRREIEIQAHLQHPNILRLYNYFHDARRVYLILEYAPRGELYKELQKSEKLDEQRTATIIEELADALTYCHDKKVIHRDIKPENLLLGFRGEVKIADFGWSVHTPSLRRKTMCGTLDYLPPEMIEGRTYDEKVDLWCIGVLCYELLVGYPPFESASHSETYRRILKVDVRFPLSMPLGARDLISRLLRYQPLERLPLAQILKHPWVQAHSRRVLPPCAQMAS
Chain of UniProt P14616 (whole entry, looked up): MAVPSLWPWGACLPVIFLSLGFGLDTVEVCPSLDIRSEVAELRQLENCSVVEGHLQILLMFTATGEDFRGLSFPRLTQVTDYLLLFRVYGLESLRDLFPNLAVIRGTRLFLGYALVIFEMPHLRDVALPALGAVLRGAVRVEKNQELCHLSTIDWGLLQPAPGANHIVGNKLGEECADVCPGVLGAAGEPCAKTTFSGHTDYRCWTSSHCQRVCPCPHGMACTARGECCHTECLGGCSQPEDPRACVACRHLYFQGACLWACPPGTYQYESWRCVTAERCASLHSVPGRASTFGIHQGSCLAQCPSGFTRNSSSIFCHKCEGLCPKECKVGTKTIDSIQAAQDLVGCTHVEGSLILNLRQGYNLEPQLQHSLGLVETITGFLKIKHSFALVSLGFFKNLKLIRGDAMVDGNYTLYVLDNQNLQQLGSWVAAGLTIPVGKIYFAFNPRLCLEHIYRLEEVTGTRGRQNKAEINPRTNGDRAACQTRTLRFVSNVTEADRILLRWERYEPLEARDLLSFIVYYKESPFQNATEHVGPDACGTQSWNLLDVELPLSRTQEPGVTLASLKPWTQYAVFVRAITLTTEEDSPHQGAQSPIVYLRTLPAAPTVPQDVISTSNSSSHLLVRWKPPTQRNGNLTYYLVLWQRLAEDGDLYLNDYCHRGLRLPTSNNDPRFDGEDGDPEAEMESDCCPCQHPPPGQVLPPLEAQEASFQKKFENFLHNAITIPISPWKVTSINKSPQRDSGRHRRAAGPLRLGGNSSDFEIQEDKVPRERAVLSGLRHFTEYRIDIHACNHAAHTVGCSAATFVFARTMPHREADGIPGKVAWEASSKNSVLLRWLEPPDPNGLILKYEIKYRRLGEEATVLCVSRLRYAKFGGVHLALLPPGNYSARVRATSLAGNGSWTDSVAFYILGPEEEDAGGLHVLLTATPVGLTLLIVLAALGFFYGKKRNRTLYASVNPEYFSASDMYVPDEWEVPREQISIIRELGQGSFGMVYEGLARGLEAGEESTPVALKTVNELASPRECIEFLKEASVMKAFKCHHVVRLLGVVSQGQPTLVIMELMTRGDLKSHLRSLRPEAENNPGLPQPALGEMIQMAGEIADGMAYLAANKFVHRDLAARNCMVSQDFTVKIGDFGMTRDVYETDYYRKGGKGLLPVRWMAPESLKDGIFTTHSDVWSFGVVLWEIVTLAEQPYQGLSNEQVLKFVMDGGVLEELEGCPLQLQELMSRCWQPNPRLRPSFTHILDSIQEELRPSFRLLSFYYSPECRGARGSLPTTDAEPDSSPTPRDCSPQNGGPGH
Chain of UniProt Q86UE8 (whole entry, looked up): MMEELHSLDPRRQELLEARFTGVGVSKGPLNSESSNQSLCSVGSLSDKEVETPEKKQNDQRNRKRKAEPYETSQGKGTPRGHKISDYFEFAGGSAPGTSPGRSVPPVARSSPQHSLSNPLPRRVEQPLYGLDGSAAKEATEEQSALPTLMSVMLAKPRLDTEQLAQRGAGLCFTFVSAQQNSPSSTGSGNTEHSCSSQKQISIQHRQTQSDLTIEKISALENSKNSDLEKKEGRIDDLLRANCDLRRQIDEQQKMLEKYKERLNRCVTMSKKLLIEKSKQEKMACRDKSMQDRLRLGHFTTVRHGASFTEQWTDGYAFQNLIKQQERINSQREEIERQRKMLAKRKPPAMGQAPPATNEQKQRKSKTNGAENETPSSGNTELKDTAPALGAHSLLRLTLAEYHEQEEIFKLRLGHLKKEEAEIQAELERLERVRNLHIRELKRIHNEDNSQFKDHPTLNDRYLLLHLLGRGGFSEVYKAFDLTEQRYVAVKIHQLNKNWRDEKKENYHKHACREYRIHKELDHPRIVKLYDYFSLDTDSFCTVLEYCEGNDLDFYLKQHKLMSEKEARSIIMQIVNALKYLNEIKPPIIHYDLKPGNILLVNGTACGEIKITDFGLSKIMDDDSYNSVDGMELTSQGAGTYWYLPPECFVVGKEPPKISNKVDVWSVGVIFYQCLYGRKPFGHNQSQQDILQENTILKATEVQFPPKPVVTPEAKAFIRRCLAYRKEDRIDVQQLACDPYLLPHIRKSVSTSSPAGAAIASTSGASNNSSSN
Chain of UniProt P35968 (whole entry, looked up): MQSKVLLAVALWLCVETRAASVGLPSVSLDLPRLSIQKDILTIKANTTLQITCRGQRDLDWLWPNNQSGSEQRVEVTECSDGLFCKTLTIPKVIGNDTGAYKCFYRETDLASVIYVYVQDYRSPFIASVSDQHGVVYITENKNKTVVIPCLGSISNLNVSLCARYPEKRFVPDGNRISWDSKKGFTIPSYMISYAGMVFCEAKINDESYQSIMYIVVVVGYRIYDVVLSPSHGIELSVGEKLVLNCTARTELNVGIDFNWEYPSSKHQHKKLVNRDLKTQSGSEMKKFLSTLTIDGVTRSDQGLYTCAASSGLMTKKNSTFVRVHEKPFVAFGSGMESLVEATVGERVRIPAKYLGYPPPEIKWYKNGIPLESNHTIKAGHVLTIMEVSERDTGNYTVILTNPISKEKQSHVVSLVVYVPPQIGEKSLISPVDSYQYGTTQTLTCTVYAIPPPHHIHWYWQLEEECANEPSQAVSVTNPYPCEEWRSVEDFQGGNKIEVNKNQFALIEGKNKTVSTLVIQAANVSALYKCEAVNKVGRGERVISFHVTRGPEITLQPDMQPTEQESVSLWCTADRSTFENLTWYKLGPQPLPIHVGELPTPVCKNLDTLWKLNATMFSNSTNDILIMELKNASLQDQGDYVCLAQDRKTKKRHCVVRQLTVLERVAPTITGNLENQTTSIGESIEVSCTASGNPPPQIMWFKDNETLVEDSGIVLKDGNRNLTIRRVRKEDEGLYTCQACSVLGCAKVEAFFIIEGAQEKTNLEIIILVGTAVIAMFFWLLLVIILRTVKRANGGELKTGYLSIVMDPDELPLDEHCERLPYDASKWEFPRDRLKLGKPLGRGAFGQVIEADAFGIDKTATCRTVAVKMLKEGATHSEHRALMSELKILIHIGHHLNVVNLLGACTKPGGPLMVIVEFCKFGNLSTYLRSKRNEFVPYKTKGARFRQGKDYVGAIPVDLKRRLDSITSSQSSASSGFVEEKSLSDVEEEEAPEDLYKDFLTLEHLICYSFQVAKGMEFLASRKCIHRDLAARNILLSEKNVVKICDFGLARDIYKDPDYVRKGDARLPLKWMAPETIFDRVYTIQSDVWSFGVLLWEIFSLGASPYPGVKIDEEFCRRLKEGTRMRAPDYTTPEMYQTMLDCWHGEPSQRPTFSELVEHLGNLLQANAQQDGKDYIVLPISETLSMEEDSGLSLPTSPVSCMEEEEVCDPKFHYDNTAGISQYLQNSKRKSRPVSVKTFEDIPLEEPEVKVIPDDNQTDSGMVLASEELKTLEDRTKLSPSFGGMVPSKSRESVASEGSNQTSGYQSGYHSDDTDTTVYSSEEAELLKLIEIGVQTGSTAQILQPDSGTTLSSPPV

Set 1
Compound: c1ccc(N2CCN(Cc3nc4ccccc4[nH]3)CC2)nc1
Technique: competition with immobilised ligand
Concentration: 1 µM
CSNK1G2 (Homo sapiens, UniProt P78368); cell-free assay — remaining binding: 100%.
Tyrosine-protein kinase ABL1, phosphorylated (ABL1, Homo sapiens, UniProt P00519, Y253F); binding — remaining binding: 100%.
It gave 75% for remaining binding (EPHB6 (Homo sapiens, UniProt O15197); cell-free assay).
For Tyrosine-protein kinase ABL1, non-phosphorylated (ABL1, Homo sapiens, UniProt P00519); binding: remaining binding read 80%.
For PNCK (Homo sapiens, UniProt Q6P2M8); cell-free assay: remaining binding read 0%.
Aurora kinase C (AURKC, Homo sapiens, UniProt Q9UQB9); binding — remaining binding: 100%.
For INSRR (Homo sapiens, UniProt P14616); binding: remaining binding read 97%.

Set 2
Host: mouse
Sample: microsomes or S9
Concentration: 2 µM
Time: 0.5 h
With `CC(=O)N(CC(=O)N1CCCN(c2ccc(-c3ccccc3)nn2)CC1)C(C)c1ccccc1` (stereo not shown) the remaining compound was 0.156%.
For `CN1C[C@H](NC(=O)Nc2cccc3ccccc23)C[C@H]1CO`, the remaining compound was > 99%.
The remaining compound of `Nc1nc(N2CCN(c3ccccc3Cl)CC2)nc2ccccc12` is reported as 0.761%.
For `CCN(CC)c1ccc(/C=N/n2c(C)nnc2C)cc1`, the remaining compound was 74.4%.

Set 3
Structure (SMILES): Cc1ccc(NC(=O)c2ccc(CN3CCN(C)CC3)cc2)cc1Nc1nccc(-c2cccnc2)n1
Effect on: enzyme activity
Action: inhibitor
Concentration: 0.5 µM
Baseline: control
PNCK (Homo sapiens, UniProt Q6P2M8) — remaining activity: 101%.
KDR (Homo sapiens, UniProt P35968) — remaining activity: 94.2%.
Cyclin-dependent kinase 1, with cyclin A (CDK1, Homo sapiens, UniProt P06493) — remaining activity: 101%.
It gave 97.1% for remaining activity (CDC42BPB (Homo sapiens, UniProt Q9Y5S2)).
For MARK4 (Homo sapiens, UniProt Q96L34): remaining activity read 102%.
For GRK4 (Homo sapiens, UniProt P32298): remaining activity read 105%.
The remaining activity was 85.7% (Myosin-IIIb (MYO3B, Homo sapiens, UniProt Q8WXR4)).
For MAPK1 (Homo sapiens, UniProt P28482): remaining activity read 89.9%.
TLK2 (Homo sapiens, UniProt Q86UE8) — remaining activity: 78.4%.
The remaining activity was 94.7% (MARK2 (Homo sapiens, UniProt Q7KZI7)).
For PAK3 (Homo sapiens, UniProt O75914): remaining activity read 106%.
Cyclin-dependent kinase 9, with cyclin K (CDK9, Homo sapiens, UniProt P50750) — remaining activity: 103%.
The remaining activity was 112% (AKT2 (Homo sapiens, UniProt P31751)).

Set 4
SMILES: COc1ccc2[nH]c3c4[nH]c5ccc(OC)cc5c4c4c(c3c2c1)C(=O)NC4=O
Technique: competitive binding panel
Concentration: 1 µM
Baseline: vehicle
For MAPKAPK2 (Homo sapiens, UniProt P49137): remaining binding read 100%.
NEK2 (Homo sapiens, UniProt P51955) — remaining binding: 78%.
The remaining binding was 82% (ABL2 (Homo sapiens, UniProt P42684)).
The remaining binding was 77% (ACVR1 (Homo sapiens, UniProt Q04771)).
DCLK2 (Homo sapiens, UniProt Q8N568); item: DCAMKL2 — remaining binding: 90%.
For PIK3CA (Homo sapiens, UniProt P42336, C420R): remaining binding read 90%.
It gave 70% for remaining binding (HIPK4 (Homo sapiens, UniProt Q8NE63)).
